Literature values that unrelated publications cite.
Lines come from different studies, so protocols differ. ± gives the spread as reported. Values after ≈ are worked out from the molar mass of the structure shown.

SMILES | target or system | test | test system | setting | how to read | quantity | value
CCN(CC)CC#CCNc1ccnc2cc(Cl)ccc12 | Plasmodium berghei |  | mouse, infected | 640 mg/kg, single dose |  | survival increase | > 9 days
O=C(NCCNCCO)c1cn(Cc2ccccc2)c2cc(Cl)c(OCc3ccc(C(F)(F)F)cc3)cc2c1=O | Staphylococcus aureus | growth | MRSA ATCC 43300 |  |  | MIC | > 32 µg/mL
COc1ccc(NC2=C(O)C(=O)c3ccccc3C2=O)cc1 | Plasmodium berghei |  | infected mice | dose not given |  | mean survival time | 26 ± 4 days
COc1ccc(/C=C(\C)[N+](=O)[O-])cc1 | Leishmania donovani | parasite growth | amastigote |  |  | IC50 | 26.4 ± 2.71 nM
O=C(O)[C@@H]1Cc2c([nH]c3ccccc23)[C@@H](c2ccc(F)cc2F)N1 | Plasmodium falciparum | parasite growth | Dd2 |  |  | IC50 | 780 ± 175 nM
CO[C@@H]1CN(c2ccc(C#CC3(O)CN4CCC3CC4)c(Cc3ccccc3)n2)C[C@H]1O (stereo partly drawn) | Leishmania infantum | amastigote growth |  |  |  | IC50 | 17300 nM
CC[C@H](C)[C@@H]1NC(=O)[C@H](CCC(N)=O)NC(=O)[C@H](CCCCN)NC(=O)[C@H](Cc2ccc(O)cc2)NC(=O)[C@H](CCCNC(=N)N)NC(=O)[C@H](CCCNC(=N)N)NC(=O)[C@@H]2CCCN2C(=O)[C@@H](NC(=O)[C@@H](N)Cc2ccccc2)CSSC[C@@H](C(=O)N[C@@H](CCCCN)C(=O)O)NC(=O)[C@H](CCCCN)NC(=O)[C@H]([C@@H](C)O)NC(=O)CNC(=O)[C@@H]2CCCN2C(=O)[C@H](CC(C)C)NC(=O)CNC(=O)[C@H]([C@@H](C)O)NC(=O)CNC1=O | Escherichia coli |  | K-12 MG1655 | pH 7.4 |  | MBC | 19 µM (≈ 40.9 µg/mL)
c1ccc(-c2nc3n(c2-c2ccc4sccc4c2)CCC3)nc1 | Staphylococcus aureus |  | methicillin-resistant |  |  | MIC | 2 µg/mL
COc1ccccc1-c1nnc(-c2ccc(C(=O)N/N=C/c3ccc(O)c(O)c3)cc2)o1 | Leishmania |  |  |  |  | IC50 | 950 ± 10 nM
CC[C@H](C)[C@@H]1NC(=O)[C@H](CCC(N)=O)NC(=O)[C@H](CCC(=O)O)NC(=O)[C@H](CCC(=O)O)NC(=O)[C@H](CCCCN)NC(=O)[C@@H]2CCCN2C(=O)[C@H](CC(C)C)NC(=O)[C@@H](NC(=O)[C@@H](N)CO)CSSC[C@@H](C(=O)N[C@@H](CCCNC(=N)N)C(=O)N[C@@H](CCCNC(=N)N)C(=O)N[C@@H](CCCCN)C(=O)N[C@@H](CCCCN)C(=O)O)NC(=O)[C@H](CCCCN)NC(=O)[C@H](CCCNC(=N)N)NC(=O)CNC(=O)[C@H](CCCNC(=N)N)NC(=O)[C@H]([C@@H](C)O)NC(=O)[C@H](CO)NC(=O)[C@H](CCCCN)NC(=O)CNC1=O | Staphylococcus aureus |  | ATCC 8530 | pH 7.4 |  | MBC | 17 µM (≈ 44 µg/mL)
CC/C(=C\c1ccc(O)cc1)[N+](=O)[O-] | Leishmania donovani | parasite growth | promastigote |  |  | IC50 | 55.7 ± 2.84 nM
O=C(OCC[18F])C1C2CCC(CC1c1ccc(/C=C\I)cc1)N2 (stereo not drawn) | SERT | microPET | anaesthetised, medulla |  |  | time to peak uptake | 85 min
O=c1ccn([C@@H]2O[C@H](COC(c3ccccc3)(c3ccccc3)c3ccccc3)[C@@H](OC(c3ccccc3)(c3ccccc3)c3ccccc3)[C@H]2O)c(=O)[nH]1 | dengue virus | viral replication |  |  |  | IC50 | 1750 nM
COc1cc2c(cc1-c1c(C)noc1C)ncc1[nH]c(=O)n([C@H](C)c3ccccn3)c12 | Trypanosoma brucei |  | mouse | dose not given, pretreated trypanosomes injected |  | survival | 80%
C[C@H](NC(=O)[C@H](Cc1c[nH]cn1)NC(=O)[C@H](CO)NC(=O)[C@@H](N)CC(=O)O)C(=O)N[C@@H](CCCCN)C(=O)N[C@@H](CCCNC(=N)N)C(=O)N[C@@H](Cc1c[nH]cn1)C(=O)N[C@@H](Cc1c[nH]cn1)C(=O)NCC(=O)N[C@@H](Cc1ccc(O)cc1)C(=O)N[C@@H](CCCCN)C(=O)N[C@@H](CCCNC(=N)N)C(=O)N[C@@H](CCCCN)C(=O)N[C@@H](Cc1ccccc1)C(=O)N[C@@H](Cc1c[nH]cn1)C(=O)N[C@@H](CCC(=O)O)C(=O)N[C@@H](CCCCN)C(=O)N[C@@H](Cc1c[nH]cn1)C(=O)N[C@@H](Cc1c[nH]cn1)C(=O)N[C@@H](CO)C(=O)N[C@@H](Cc1c[nH]cn1)C(=O)N[C@@H](CCCNC(=N)N)C(=O)NCC(=O)N[C@@H](Cc1ccc(O)cc1)C(=O)O | Candida albicans |  |  |  |  | LD50 | 2 to 10 µM
CN1CCC2(CC1)c1ccccc1N(Cc1ccc(C(=O)NO)cc1)C2c1cccc(Cl)c1 (stereo not drawn) | Schistosoma mansoni |  | schistosomula |  |  | LD50 | 20.6 µM
Cc1onc(-c2c(Cl)cccc2Cl)c1C(=O)Nc1ccc(F)cc1C(=O)NN=Cc1cccs1 | Cucumber mosaic virus |  |  | concentration not given | reference: ningnanmycin | antiviral activity | increased
CCCCCCCCCCCCCC[N+](C)(C)CCCNC(=O)[C@H]1NC(=O)[C@H]2NC(=O)[C@H](NC(=O)[C@@H]3NC(=O)[C@H](CC(N)=O)NC(=O)[C@H](NC(=O)[C@@H](CC(C)C)NC)[C@H](O)c4ccc(c(Cl)c4)Oc4cc3cc(c4O[C@@H]3O[C@H](CO)[C@@H](O)[C@H](O)[C@H]3O[C@H]3C[C@](C)(N)[C@H](O)[C@H](C)O3)Oc3ccc(cc3Cl)[C@H]2O)c2ccc(O)c(c2)-c2c(O)cc(O)cc21 | Enterococcus |  | VanA vancomycin-resistant | concentration not given | reference: vancomycin | activity improvement | 125 fold
NC(=O)c1cn(Cc2ccc(F)cc2)cc(O)c1=O | human cytomegalovirus | viral replication | AD169 GFP reporter | 10 µM |  | inhibition | 50%
CN1CCC2(CC1)c1ccccc1N(Cc1ccc(C(=O)NO)cc1)C2c1ccc(Cl)cc1 (stereo not drawn) | Schistosoma mansoni |  | schistosomula |  |  | LD50 | 13.3 µM
CC(C)C1(CC[C@@H](C)[C@H]2[C@@H](O)CC3C4CCC5C[C@H](OS(=O)(=O)O)[C@@H](OS(=O)(=O)O)C[C@]5(C)C4CC[C@@]32CO)CC1C (stereo partly drawn) | HIV | viral replication |  | concentration not given |  | antiviral activity | active
COc1cc2ccc(-c3nc4ccccc4n3Cc3ccccc3Cl)c(OC)c2c(OC)c1OC | Zika virus |  | African strain |  | reference: CC50 over EC50 | selectivity index | 37.3
CC[C@H](C)[C@H](NC(=O)[C@H](CCCNC(=N)N)NC(=O)[C@H](CCC(N)=O)NC(=O)[C@@H](NC(=O)[C@@H](NC(=O)[C@H](CCCNC(=N)N)NC(=O)[C@H](CCCCN)NC(=O)[C@@H](N)Cc1ccccc1)[C@@H](C)CC)C(C)C)C(=O)N[C@@H](CCCCN)C(=O)N[C@@H](CC(=O)O)C(=O)N[C@@H](Cc1ccccc1)C(=O)N[C@@H](CC(C)C)C(=O)N[C@@H](CCCNC(=N)N)C(=O)O | Escherichia coli |  |  |  |  | MIC | 40 µM
CCCCc1cc2c(=O)c(C(=O)OC)c[nH]c2cc1OCCOc1ccccc1 | Plasmodium | blood schizonticidal activity | rodent malaria model |  |  | ED50 | 0.05 mg/kg

Repeated from above:
SMILES | target or system | test | test system | setting | how to read | quantity | value
O=C(OCC[18F])C1C2CCC(CC1c1ccc(/C=C\I)cc1)N2 (stereo not drawn) | SERT | microPET | anaesthetised, medulla |  |  | time to peak uptake | 85 min
O=c1ccn([C@@H]2O[C@H](COC(c3ccccc3)(c3ccccc3)c3ccccc3)[C@@H](OC(c3ccccc3)(c3ccccc3)c3ccccc3)[C@H]2O)c(=O)[nH]1 | dengue virus | viral replication |  |  |  | IC50 | 1750 nM
